Assay results of several laboratories.
A part holds a random share of what one study measured. Substitutions count along the parent as printed.

Sample 1
Target: CCND3, cyclin fold, Cln2 fusion (human)
Method: yeast growth competition, sequencing
Matrix: yeast
Setting: weak parent motif
Baseline: not given
Direction: higher = stronger binding
Starting sequence: CDT1 docking peptide (human); PPARRRLRLSVDE
Substitution | normalised enrichment score
R6A | 0.161
P2A | 0.147
R5K | 0.264
P1A | 0.0695
R8A | 0.0764
R5A | 0.0341
R4A | 0.121

Sample 2
Target: RNA binding protein fox-1 homolog 2, RRM domain, GST-SBP tag (RBFOX2, Homo sapiens, UniProt O43251-10, residues 100-194)
Method: RNA Bind-n-Seq
Form: RNA
Matrix: in vitro
Concentration: 365 nM
Setting: natural RNA segment, single round, ends assumed
Baseline: no-protein control
Direction: higher = stronger binding
All sequences stand within: GGGAGUUCUACAGUCCGACGAUC … UGGAAUUCUCGGGUGCCAA
Target sequence (chain): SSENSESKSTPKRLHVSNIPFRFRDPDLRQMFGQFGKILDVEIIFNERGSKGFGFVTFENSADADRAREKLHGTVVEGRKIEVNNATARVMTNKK
Sequence | RBNS enrichment (R)
AAACGCAAACAAAAUUCUGGUGAAAUAACUGGGCUGUUGAUGCAGGUCAGGUGGAAGCUGAGAAAUAAAUGUAUAUAAAUAUGUAGCUGAGGAUAUUAAUUCCCAUUAUA | 0.334
AAAAAGCAUGUUAAGUUGGUAUAAGCAGUGAUUUUAAAUGAUUUUUAAAAAUAAGACGUCCUUCAAAAUGUCUUUUAGUAUCAAUUAAGUUUGUGCAUGAUUGUUUUUAU | 7.03
CCAGUGUCUGGACUGCUAUAUUGGGUUGGGGGCUGGUUCUGGAACUCAGUCUGCGCCUCUAUAGGUUCUUGUAGAGCCUUGGUUGUUUCUGGCCUCUGCCUGGGACAGUA | 1.09
UCACUAGUGUCAGGCCCCCAGUGGGACCACAUGCCACUGCCUGCACCUUUCGGCAGAGGAACCCCCACCAGACAUCACCCUUUGCCUUAGCAGGGGUGACUUUGUCUCUC | 0.256
ACGAGAACAGUUUGUACAAGUUUUUUUUUUUGAAUAAAACUUUUCCAAUGAAAUGUUAUAGGUGUGUGAAAGCAGAUUAAAGAAAGAGGUUCCCAUAUCAUUCUUUCUAA | 0.488
AAGCCUCUGGGUAGAAUCUGAUGUGGCCUGAAGAAACCCUGAAGGUCACUGUCACUGUGGCGGGACAGAGUGCUUCGGUAUAAGCCCGCAGGCUUCUGGUUCUUGGUUCU | 0.27
AAGUCACCAGGUAGCUUCCAUGAGGAAUAGCUCCUCACGGUUCAUUUUUUCAGUUAGAAGAAGGUUUUUAUGAGUUAAUUUUACCCAUAAAUAUUUCAGUAAUUUUGGAG | 0.485
CCCAAGGUUAUAAGGCCUUGUCUUUCUCUUUGGAAUCAUAAAGUGGAACAGAGUCCCCAGAACUCAUGUGGCCAUUUCCGCCAGCAUCACUCCCCGGUGCCUAUGGGGUC | 0.174
GUAAUGCAGCUUCCACUCCUCUCAUUGGAGGCCCUAUUUGGGAACACUGCAAGCCCUUAAUCAGCCCUCUGUGACAUAGGUAGCAGCCCACGGAGAUCCUAAGCUGGCUG | 0.365
UCUCCACUUCUUCUCAUGUGACCUCACAGUGUUGCUACUGUUCCUAAUAAAGUUUUAAGUUAUUAGACCCUCAAGGCAGCUUCUCUCUUCCUUUGGACGGCUGGACAGGG | 0.725
CUAAGGCAGAUAGCCACCUUUACAUUGUGAGUGUGUUUACCUUGUCUAAUGACGGAUAAUUCCUUAACAUUUCUCUCCACCUUAGUACUUUAGGCUAAUUAUACACGUCU | 0.368
ACCUGCAGCCACCUUGGUUUUGCCUUGGAGAACAUUUGGGGAGCAUUUCCUGAACCCAUGUCUUUUGGGGGUACAGCUUGUCAUCCAGCAGGAAUUAUUGAGCGAGCAGG | 0.483

Sample 3
Target: RING finger protein unkempt homolog, zinc fingers 1-6, GST-SBP tag (UNK, Homo sapiens, UniProt Q9C0B0, residues 30-357)
Method: RNA Bind-n-Seq
Form: RNA
Matrix: in vitro
Concentration: not given
Setting: RNA with constant flanks, human and mouse sites, ends assumed
Baseline: input RNA pool
Direction: higher = stronger binding
All sequences stand within: GGGAGUUCUACAGUCCGACGAUC … CAACAGAGGAUUGAGCAUCA
Target sequence (chain): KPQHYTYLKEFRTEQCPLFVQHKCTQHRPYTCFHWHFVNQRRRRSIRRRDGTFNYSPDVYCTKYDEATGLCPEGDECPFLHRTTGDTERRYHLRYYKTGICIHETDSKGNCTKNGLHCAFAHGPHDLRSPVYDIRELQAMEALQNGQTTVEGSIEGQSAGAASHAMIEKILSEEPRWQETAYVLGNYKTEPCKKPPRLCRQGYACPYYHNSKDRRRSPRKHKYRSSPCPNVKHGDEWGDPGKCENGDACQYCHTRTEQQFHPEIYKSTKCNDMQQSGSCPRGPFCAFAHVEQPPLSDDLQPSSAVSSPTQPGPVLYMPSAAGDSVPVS
Sequence | bound/input enrichment
GCAUUUGUAGAAGGUGUGGUCAAGAAAGUGGCUCAGUACAUGGCUGAUGUGCUGGAGGACAGCAAAGAUAAAGUUCAGGAGAACUUGCUGGCCAGCGGAGUUGACUUGGUUACUUACAUA | 0.162 ratio
UUGCUGGUGCUGACGGGCCUGUCUGUCCUCAUCGUGGCUGUCCACAUCCUGGAGCUGCUUAUUGACGAGGCUGCCAUGCCACGGGGCAUGCAGGAUGCUGCCCUAGGCCAGGCCUCCUUC | 0.0592 ratio
AACACUAAUGAGAGAUCAUGAUGCAGCCGCCCUUUUGGAUUUCUUUUUAAUAAUGUGUGACCCUUCACCUUUGAUCCCCUGACCUGCAUUACCUUGGUAACCAUUUCAUUUUUUAAUUUA | 0.957 ratio
AAAGCAACUUUUAUCAAAGUACCCCAGAACCAAAAUGGCAAAUCUAAAGGGUAUGCAUUUAUAGAGUUUGCUUCAUUCGAAGACGCUAAAGAAGCUUUAAAUUCCUGUAAUAAAAGGGAA | 0.0984 ratio
ACUCACUUUGACCCAAUGGGCAUCCGUACCGAUGCCCCUCUGAUGCAGUUUAAAUCCAUCUUGCUAAAGUACAGCACCCCCACUUACACUGGAGCACAAUCAGAAGGCCAGAUGCCGCCA | 0.345 ratio
GUGGACACACAACAUUUAAUUAAACAAUUAAGGCAGCAUUUUGCUAUGCUCUGAUUGUUCCUUAGACCACAUAUGUUCUUAUGAAGCAGCAUUAUGCAAGGGGAAAAAAGCACUAUGUCU | 1.04 ratio
CUGAAGAAGACGGCCAGCCUGGGCUUCUGUGUCACCUACGUCUUCUUCAUCACCAGCCUCAUCUACCCCGCCAUCUGCACCAACAUCGAGUCCCUCAACAAGGGUUCGGGCUCACUGUGG | 0.0914 ratio
GCAGAAGGAUUUCUCCAGUGACGAUUCCAAGCUAGAGUAUAAUGUAGACGCUGCAAAUGGCAUUGUCAUGGAAGGGUAUCUGUUCAAACGAGCCAGCAACGCCUUCAAAACGUGGAACAG | 0.216 ratio
CCUUUUCUUUCCUUUUUUUUUUUUUUUUUAUACUCCCCCCCCCCACCCCUUCCCUUUUAAAUUUUGGUCGGUGGCGGCGGUGCUGGGCCGGAGGAAAGAAGGGACACGGAGUCCUCCCUC | 1.32 ratio
GCAACCAAAGAUGUACAUAAAGGAGAGUCUGGAAGCCAGGAAGGGGGGGUAAAUAGUUUUAGUACCUUAAUUGGCCUCCCUUCAACCUCAGCUGUUACUUCACAGCCUAAAAGCUUUGAA | 1.01 ratio
CCCGACCAGAAUACGAAGCACGAUGUACUCACGUAGUGAUAAAUGAGAUUACUCAGGAAGAAGAACGCAUUCCCUUUACUGCCUGGGGAAAAUGUAUACGGAUAACCCUCUGUGCCAGUG | 0.183 ratio

Sample 4
Target: UBE2E3 UBC core domain (UniProt Q969T4)
UniProt Q969T4, sequence (whole entry, looked up): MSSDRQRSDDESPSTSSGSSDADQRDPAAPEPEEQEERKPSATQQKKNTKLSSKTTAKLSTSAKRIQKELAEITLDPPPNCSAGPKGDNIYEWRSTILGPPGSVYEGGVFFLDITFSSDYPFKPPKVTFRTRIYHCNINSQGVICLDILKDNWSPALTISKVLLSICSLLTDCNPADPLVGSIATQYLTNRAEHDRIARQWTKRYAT
Method: yeast two-hybrid
Matrix: yeast
Setting: mostly zero background
Baseline: not given
Direction: higher = stronger interaction
B1: TRIM34 RING domain (UniProt Q9BYJ4); chain ILLNVQEEVTCPICLELLTEPLSLDCGHSLCRACITVSNKEAVTSMGGKSSCPVCGISYSFEHLQA
B2: MDM2 RING domain (UniProt Q00987); chain TQDKEESVESSLPLNAIEPCVICQGRPKNGCIVHGKTGHLMACFTCAKKLKKRNKPCPVCRQPIQMIVLTYFP
B3: RNF10 RING domain (UniProt Q8N5U6); chain VRICSHEVPSCPICLYPPTAAKITRCGHIFCWACILHYLSLSEKTWSKCPICYSSVHKKDLKS
B4: TRIM2 RING domain (UniProt Q9C040); chain VRQIDKQFLICSICLERYKNPKVLPCLHTFCERCLQNYIPAHSLTLSCPVCRQTSILPEKGV
B5: TRIM28 RING domain (UniProt Q13263); chain GAEALELLEHCGVCRERLRPEREPRLLPCLHSACSACLGPAAPAAANSSGDGGAAGDGTVVDCPVCKQQCFSKDIVE
B6: RFPL3 RING domain (UniProt O75679); chain MAALFQEASSCPVCSDYLEKPMSLECGCTVCLKCINSLQKEPHGEDLLCCCCSMVSQRNKIRP
B7: RNF11 RING domain (UniProt Q9Y3C5); chain RDGSEKKIRECVICMMDFVYGDPIRFLPCMHIYHLDCIDDWLMRSFTCPSCMEPVDAALLSS
B8: RNF32 RING domain (UniProt Q9H0A6); chain VQALRRETHECSICLAPLSAAGGQRVGAGRRSREMALLSCSHVFHHACLLALEEFSVGDRPPFHACPLCRSCYQKKILEC
B9: ARIH1 RING domain (UniProt Q9Y4X5); chain NTRSSAQDMPCQICYLNYPNSYFTGLECGHKFCMQCWSEYLTTKIMEEGMGQTISCPAHGCDILVDDNTVM
B10: SHPRH RING domain (UniProt Q149N8); chain KTSGGVNPEPCPICARQLGKQWAVLTCGHCFCNECISIIIEQYSVGSHRSSIKCAICRQTTSHKEISY
Sequence | lacZ reporter activity
B1 (TRIM34 RING domain) | 0
EDVLSKDAGECAICLEELQQGDTIARLPCLCIYHKGCIDEWFEVNRSCPEHPSD (ZNRF2 RING domain (UniProt Q8NHG8)) | 0
EIKDYKARLTCPCCNMRKKDAVLTKCFHVFCFECVKTRYDTRQRKCPKCNAAFGANDFHR (RNF20 RING domain (UniProt Q5VTR2)) | 0
B2 (MDM2 RING domain) | 0
GSEEEEIPFRCFICRQAFQNPVVTKCRHYFCESCALEHFRATPRCYICDQPTGGIFNPA (RNF113B RING domain (UniProt Q8IZP6)) | 0
B3 (RNF10 RING domain) | 0
B4 (TRIM2 RING domain) | 0
SNNDLASLFECPVCFDYVLPPILQCQSGHLVCSNCRPKLTCCPTCRGPLGSIRNLA (SIAH1 RING domain (UniProt Q8IUQ4)) | 0
FLSKVEETFQCICCQELVFRPITTVCQHNVCKDCLDRSFRAQVFSCPACRYDLGRSYAMQ (UHRF1 RING domain (UniProt Q96T88)) | 0
B5 (TRIM28 RING domain) | 0
B6 (RFPL3 RING domain) | 0
B7 (RNF11 RING domain) | 0
B8 (RNF32 RING domain) | 0
VPADASPDSKCPICLDRFDNVSYLDRCLHKFCFRCVQEWSKNKAECPLCKQPFDSIFHSV (TOPORS RING domain (UniProt Q9NS56)) | 11700
B9 (ARIH1 RING domain) | 0
B10 (SHPRH RING domain) | 0
MEEMEEELKCPVCGSFYREPIILPCSHNLCQACARNILVQTPESESPQSHRAAGSGVSDY (TRIM9 RING domain (UniProt Q9C026)) | 0
AAQLLEEKLTCAICLGLYQDPVTLPCGHNFCGACIRDWWDRCGKACPECREPFPDGAELR (TRIM65 RING domain (UniProt Q6PJ69)) | 0
PLRRLQEEKLCKICMDRHIAVVFIPCGHLVTCKQCAEAVDRCPMCSAVIDFKQRVF (BIRC8 RING domain (UniProt Q96P09)) | 0

Sample 5
Target: Hepatocyte nuclear factor 3-beta, forkhead domain (FOXA2, Homo sapiens, UniProt Q9Y261, residues 142-269)
Method: protein-binding microarray
Form: double-stranded DNA, one strand shown
Matrix: in vitro
Concentration: not given
Setting: k-mer, scored over probes, only values ≥0.25
Direction: higher = stronger binding
Residues (chain): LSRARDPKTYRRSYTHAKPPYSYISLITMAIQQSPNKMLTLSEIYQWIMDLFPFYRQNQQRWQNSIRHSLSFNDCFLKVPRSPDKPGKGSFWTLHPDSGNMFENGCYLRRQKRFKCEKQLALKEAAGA
Sequence | E-score
TAGTAATA | 0.285
ATATACAA | 0.376
GTACATAC | 0.311
ACTTATAT | 0.332
AAATACAT | 0.309
AAAGTTAT | 0.258
TAAAGTTA | 0.278
TACAAACA | 0.41
TAACACTA | 0.343
ATAATATC | 0.289
AGTCAACA | 0.371
TAACACAA | 0.354
ATAAAGTA | 0.342
ATCAGTTG | 0.284
ATTTGATA | 0.282
CATTTTAC | 0.319
CACTCATA | 0.321

Repeated from above (sample 5):
Sequence | E-score
TAACACTA | 0.343
ATAATATC | 0.289
AGTCAACA | 0.371
TAACACAA | 0.354
ATAAAGTA | 0.342
ATCAGTTG | 0.284
ATTTGATA | 0.282
CATTTTAC | 0.319
